Published values pooled from the literature.
Lines come from different studies, so protocols differ. “And” joins repeats or separate records; there may be more than shown. ± marks the error that the study gave.

Sequences of proteins named here, by UniProt entry; tags and fusion partners are left off. A line that says so, or that is headed by a name, gives the form on record, which may keep a tag or linker. Residues count along the entry.
UniProt Q16881, 151-649 limits assumed: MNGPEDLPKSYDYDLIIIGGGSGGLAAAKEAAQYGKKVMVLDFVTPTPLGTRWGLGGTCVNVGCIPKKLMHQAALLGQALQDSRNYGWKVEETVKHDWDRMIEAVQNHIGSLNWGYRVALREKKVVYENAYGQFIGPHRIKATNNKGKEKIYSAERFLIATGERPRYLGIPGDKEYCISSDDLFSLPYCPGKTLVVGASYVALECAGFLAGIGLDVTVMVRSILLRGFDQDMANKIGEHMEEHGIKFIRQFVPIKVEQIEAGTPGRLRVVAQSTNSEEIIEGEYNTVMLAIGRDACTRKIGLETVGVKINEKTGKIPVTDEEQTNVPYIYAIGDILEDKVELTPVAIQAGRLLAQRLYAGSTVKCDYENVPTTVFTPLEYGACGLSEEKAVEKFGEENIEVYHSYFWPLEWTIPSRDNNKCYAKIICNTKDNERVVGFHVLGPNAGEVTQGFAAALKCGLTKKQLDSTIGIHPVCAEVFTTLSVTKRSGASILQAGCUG
UniProt P08510, 1-655 with tags or gaps DEL6-46: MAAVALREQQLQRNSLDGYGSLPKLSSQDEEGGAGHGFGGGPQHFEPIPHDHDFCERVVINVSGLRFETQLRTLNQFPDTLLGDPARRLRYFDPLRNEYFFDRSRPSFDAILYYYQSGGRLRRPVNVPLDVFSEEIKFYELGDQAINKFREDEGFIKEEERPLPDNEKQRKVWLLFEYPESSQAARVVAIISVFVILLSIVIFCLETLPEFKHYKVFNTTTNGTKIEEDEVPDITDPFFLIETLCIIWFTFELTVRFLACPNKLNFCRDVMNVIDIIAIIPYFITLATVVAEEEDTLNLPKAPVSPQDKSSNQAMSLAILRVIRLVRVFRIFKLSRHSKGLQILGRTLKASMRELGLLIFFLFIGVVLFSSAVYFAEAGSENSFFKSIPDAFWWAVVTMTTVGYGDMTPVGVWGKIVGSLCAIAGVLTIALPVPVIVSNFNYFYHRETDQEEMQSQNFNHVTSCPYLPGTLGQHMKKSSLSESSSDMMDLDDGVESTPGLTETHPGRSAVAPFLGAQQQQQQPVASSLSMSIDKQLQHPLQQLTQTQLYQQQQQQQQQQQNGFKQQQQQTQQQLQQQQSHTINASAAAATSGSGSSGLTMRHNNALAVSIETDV

CC(C)[C@H]1CC[C@@H](N2CCC3(CC2)C(=O)NCN3c2ccccc2)CC1  bias factor (nociceptin receptor (human); BRET; reference: N/OFQ as unbiased standard, G protein over β-arrestin 2): 0.93
CC[C@H](C)[C@H](NC(=O)[C@H](C)NC(=O)[C@H](CCC(=O)O)NC(=O)[C@H](CCC(=O)O)NC(=O)[C@H](CC(C)C)NC(=O)[C@H](CCCCN)NC(=O)[C@H](CCCCN)NC(=O)[C@H](CCSC)NC(=O)[C@H](CCC(=O)O)NC(=O)[C@H](Cc1ccc(O)cc1)NC(=O)[C@H](CCC(=O)O)NC(=O)[C@H](CC(C)C)NC(=O)[C@H](CC(=O)O)NC(=O)[C@H](CC(C)C)NC(=O)[C@H](Cc1ccccc1)NC(=O)[C@H](Cc1ccccc1)NC(=O)[C@@H](NC(=O)[C@H](CC(N)=O)NC(=O)[C@@H](NC(=O)[C@H](CCC(N)=O)NC(=O)[C@H](CC(=O)O)NC(=O)[C@H](CC(C)C)NC(=O)[C@@H](N)CO)[C@@H](C)CC)C(C)C)C(=O)N[C@@H](CCCCN)C(=O)N[C@@H](CCCCN)C(=O)N[C@@H](CC(C)C)C(=O)N[C@@H](CCC(=O)O)C(=O)N[C@@H](CCC(=O)O)C(=O)N[C@@H](CO)C(=O)N[C@@H](Cc1ccc(O)cc1)C(=O)N[C@H](C(=O)N[C@@H](CC(=O)O)C(=O)N[C@@H](CC(C)C)C(=O)N[C@@H](CCCCN)C(=O)N[C@@H](CCC(=O)O)C(=O)N[C@@H](CC(C)C)C(=O)O)[C@@H](C)CC  IC50 (SARS-CoV-2 EG.5.1 pseudovirus; pseudovirus infection, inhibitor, luciferase; Caco-2; 24 h): 196 nM
O=C(NC1CCN(c2ncnc3[nH]cnc23)CC1)c1cccc(S(=O)(=O)Nc2ccc(Cl)cc2)c1  relative infection (SARS-CoV-2; Wuhan-Hu-1; 22.22 µM; reference: untreated infected cells): 27.7%
COc1cccc2c1CCCC2CCCN1CCN(C2CCCCC2)CC1 (stereo not drawn)  dendritic spine density (hippocampal neurons; concentration not given, with: RML PrPSc): 0.86 ± 0.03 spines/µm
CC(=O)Oc1ccc(CON2C(=O)CCC2=O)cc1  IC50 (Thioredoxin reductase 1, cytoplasmic (TXNRD1, Homo sapiens, UniProt Q16881); enzyme activity, inhibitor): 710 ± 30 nM
CC[C@H](C)[C@H](NC(=O)[C@H](C)NC(=O)[C@H](CCC(=O)O)NC(=O)[C@H](CCC(=O)O)NC(=O)[C@H](CC(C)C)NC(=O)[C@H](CCCCN)NC(=O)[C@H](CCCCN)NC(=O)[C@H](CCSC)NC(=O)[C@H](CCC(=O)O)NC(=O)[C@H](Cc1ccc(O)cc1)NC(=O)[C@H](CCC(=O)O)NC(=O)[C@H](CC(C)C)NC(=O)[C@H](CC(=O)O)NC(=O)[C@H](CC(C)C)NC(=O)[C@H](Cc1ccccc1)NC(=O)[C@H](Cc1ccccc1)NC(=O)[C@@H](NC(=O)[C@H](CC(N)=O)NC(=O)[C@@H](NC(=O)[C@H](CCC(N)=O)NC(=O)[C@H](CC(=O)O)NC(=O)[C@H](CC(C)C)NC(=O)[C@@H](N)CO)[C@@H](C)CC)C(C)C)C(=O)N[C@@H](CCCCN)C(=O)N[C@@H](CCCCN)C(=O)N[C@@H](CC(C)C)C(=O)N[C@@H](CCC(=O)O)C(=O)N[C@@H](CCC(=O)O)C(=O)N[C@H](C(=O)N[C@@H](Cc1ccc(O)cc1)C(=O)N[C@H](C(=O)N[C@@H](CC(=O)O)C(=O)N[C@@H](CC(C)C)C(=O)N[C@@H](CCCCN)C(=O)N[C@@H](CCC(=O)O)C(=O)N[C@@H](CC(C)C)C(=O)O)[C@@H](C)CC)[C@@H](C)O  IC50 (SARS-CoV-2 Beta pseudovirus; pseudovirus infection, inhibitor, luciferase; Caco-2; 24 h, dual mutations): 614 nM
Cc1ccc(S(=O)(=O)Nc2cccc(C(=O)NC3CCN(c4ncnc5[nH]cnc45)CC3)c2)cc1Cl  IC50 (SARS-CoV-2; viral infection; Wuhan-Hu-1): 2320 nM
COc1ccc(OCC2c3cc(OC(C)C)ccc3CCN2C(=O)c2cccc(Cl)c2)cc1 (racemic)  NMDA current (NMDA receptor; patch clamp; cultured hippocampal neurons; 10 µM, with: 100 µM NMDA and 3 µM glycine; reference: no compound): 200 ± 10%
CNC(=O)CC1C(=O)N(C2CCN([C@H]3CC[C@@H](C(C)C)CC3)CC2)c2ccccc21 (stereo partly drawn)  bias factor (nociceptin receptor (human); BRET; reference: N/OFQ as unbiased standard, G protein over β-arrestin 2): 0.16
CC[C@H](C)[C@H](NC(=O)[C@H](C)NC(=O)[C@H](CCC(=O)O)NC(=O)[C@H](CCC(=O)O)NC(=O)[C@H](CC(C)C)NC(=O)[C@H](CCCCN)NC(=O)[C@H](CCCCN)NC(=O)[C@H](CCSC)NC(=O)[C@H](CCC(=O)O)NC(=O)[C@H](Cc1ccc(O)cc1)NC(=O)[C@H](CCC(=O)O)NC(=O)[C@H](CC(C)C)NC(=O)[C@H](CC(=O)O)NC(=O)[C@H](CC(C)C)NC(=O)[C@H](Cc1ccccc1)NC(=O)[C@H](Cc1ccc(O)cc1)NC(=O)[C@@H](NC(=O)[C@H](CC(N)=O)NC(=O)[C@@H](NC(=O)[C@H](CCC(N)=O)NC(=O)[C@H](CC(=O)O)NC(=O)[C@H](CC(C)C)NC(=O)[C@@H](N)CO)[C@@H](C)CC)C(C)C)C(=O)N[C@@H](CCCCN)C(=O)N[C@@H](CCCCN)C(=O)N[C@@H](CC(C)C)C(=O)N[C@@H](CCC(=O)O)C(=O)N[C@@H](CCC(=O)O)C(=O)N[C@H](C(=O)N[C@@H](Cc1ccc(O)cc1)C(=O)N[C@H](C(=O)N[C@@H](CC(=O)O)C(=O)N[C@@H](CC(C)C)C(=O)N[C@@H](CCCCN)C(=O)N[C@@H](CCC(=O)O)C(=O)N[C@@H](CC(C)C)C(=O)O)[C@@H](C)CC)[C@@H](C)O  IC50 (SARS-CoV-2 Alpha pseudovirus; pseudovirus infection, inhibitor, luciferase; Caco-2; 24 h, dual mutations): 617 nM
COc1ccc(S(=O)(=O)Nc2cccc(C(=O)NC3CCN(c4ncnc5[nH]cnc45)CC3)c2)cc1  relative infection (SARS-CoV-2; Wuhan-Hu-1; 22.22 µM; reference: untreated infected cells): 32.4%
CCOP(=O)(OCC)ON1C(=O)c2cccc3cccc(c23)C1=O  IC50 (carboxylesterase (rat); enzyme activity, inhibitor; rat, postnatal day 12, rat liver homogenate; with: p-nitrophenyl valerate): 5.3 nM
CC#Cc1ccc2c(=O)[nH]nc(Cc3ccc(F)c(C(=O)N4CCN(c5ccc(C#N)cn5)CC4)c3)c2c1  protein level (CT26; western blot, refers to: STAT1 and pSTAT1 (Tyr701); concentration not given, 16 h): increased
O=C(CSc1ccccc1)N1CCCC2(C1)Nc1cccnc1N=C2NC1CCCC1 (stereo not drawn)  CC50 (HepG2; cell viability, CellTiter-Glo; 72 h): > 70000 nM
c1ccc2c(NC3CCNCC3)nc(NCc3ccc(CNCCCNC4CCCCC4)cc3)nc2c1  selectivity index (TZM-bl; reference: CC50 over anti-HIV EC50): > 731
O=C(NC1CCN(c2ncnc3[nH]cnc23)CC1)c1cccc(NS(=O)(=O)c2ccc([N+](=O)[O-])cc2)c1  relative infection (SARS-CoV-2; Wuhan-Hu-1; 2.469 µM; reference: untreated infected cells): 36.5%
CC[C@H](C)[C@@H]1NC(=O)[C@H](CCCNC(=N)N)NC(=O)[C@@H](N)CSSC[C@@H]2NC(=O)[C@@H]3CSSC[C@@H](C(=O)N[C@H](C(=O)O)C(C)C)NC(=O)[C@H](CCCCN)NC(=O)[C@H](CC(N)=O)NC(=O)[C@H](Cc4ccccc4)NC(=O)[C@H](CCCNC(=N)N)NC(=O)[C@H](CC(N)=O)NC(=O)[C@H](CSSC[C@H](NC(=O)[C@H](CCCCN)NC(=O)[C@H](CCC(N)=O)NC(=O)[C@H](CC(N)=O)NC(=O)[C@@H]4C[C@@H](O)CN4C1=O)C(=O)N[C@@H](Cc1ccccc1)C(=O)N[C@@H](CCC(N)=O)C(=O)N[C@@H](Cc1c[nH]cn1)C(=O)N[C@@H](CC(C)C)C(=O)N[C@@H](CC(=O)O)C(=O)N[C@@H](CC(=O)O)C(=O)N3)NC(=O)[C@H](CCCCN)NC(=O)[C@H](CCCNC(=N)N)NC(=O)[C@H](CO)NC2=O  koff (Sh (Drosophila melanogaster, UniProt P08510, del6-46); potassium current, two-electrode voltage clamp; Xenopus oocytes; external K 2 mM, zero voltage): 21 ± 2 s⁻¹
CC[C@H](C)[C@H](NC(=O)[C@H](C)NC(=O)[C@H](CCC(=O)O)NC(=O)[C@H](CCC(=O)O)NC(=O)[C@H](CC(C)C)NC(=O)[C@H](CCCCN)NC(=O)[C@H](CCCCN)NC(=O)[C@H](CCSC)NC(=O)[C@H](CCC(=O)O)NC(=O)[C@H](Cc1ccc(O)cc1)NC(=O)[C@H](CCC(=O)O)NC(=O)[C@H](CC(C)C)NC(=O)[C@H](CC(=O)O)NC(=O)[C@H](CC(C)C)NC(=O)[C@H](Cc1ccccc1)NC(=O)[C@H](Cc1ccc(O)cc1)NC(=O)[C@@H](NC(=O)[C@H](CC(N)=O)NC(=O)[C@@H](NC(=O)[C@H](CCC(N)=O)NC(=O)[C@H](CC(=O)O)NC(=O)[C@H](CC(C)C)NC(=O)[C@@H](N)CO)[C@@H](C)CC)C(C)C)C(=O)N[C@@H](CCCCN)C(=O)N[C@@H](CCCCN)C(=O)N[C@@H](CC(C)C)C(=O)N[C@@H](CCC(=O)O)C(=O)N[C@@H](CCC(=O)O)C(=O)N[C@@H](CO)C(=O)N[C@@H](Cc1ccc(O)cc1)C(=O)N[C@H](C(=O)N[C@@H](CC(=O)O)C(=O)N[C@@H](CC(C)C)C(=O)N[C@@H](CCCCN)C(=O)N[C@@H](CCC(=O)O)C(=O)N[C@@H](CC(C)C)C(=O)O)[C@@H](C)CC  IC50 (SARS-CoV-2 Beta pseudovirus; pseudovirus infection, inhibitor, luciferase; Caco-2; 24 h): 455 nM
Cc1ccc(S(=O)(=O)Nc2cccc(C(=O)NC3CCN(c4ncnc5[nH]cnc45)CC3)c2)cc1  inhibition (monkeypox virus E1/E12; 0.01221 µM): 9.21% and 15.9%
O=C(Nc1cc(F)cc(F)c1)N1CCCC2(C1)Nc1cccnc1N=C2NC1CCCC1 (stereo not drawn)  CC50 (HepG2; cell viability, CellTiter-Glo; 72 h): > 70000 nM
CS(=O)(=O)Cc1onc(-c2cccc(Cl)c2)c1-c1ccnc(N[C@@H]2CCN(C(=O)c3nccs3)C2)n1  EC50 (Plasmodium falciparum; parasite growth; 3D7 A10; 72 h, asexual blood stage): 5280 ± 400 nM

Some of these lines once more:
CC[C@H](C)[C@H](NC(=O)[C@H](C)NC(=O)[C@H](CCC(=O)O)NC(=O)[C@H](CCC(=O)O)NC(=O)[C@H](CC(C)C)NC(=O)[C@H](CCCCN)NC(=O)[C@H](CCCCN)NC(=O)[C@H](CCSC)NC(=O)[C@H](CCC(=O)O)NC(=O)[C@H](Cc1ccc(O)cc1)NC(=O)[C@H](CCC(=O)O)NC(=O)[C@H](CC(C)C)NC(=O)[C@H](CC(=O)O)NC(=O)[C@H](CC(C)C)NC(=O)[C@H](Cc1ccccc1)NC(=O)[C@H](Cc1ccc(O)cc1)NC(=O)[C@@H](NC(=O)[C@H](CC(N)=O)NC(=O)[C@@H](NC(=O)[C@H](CCC(N)=O)NC(=O)[C@H](CC(=O)O)NC(=O)[C@H](CC(C)C)NC(=O)[C@@H](N)CO)[C@@H](C)CC)C(C)C)C(=O)N[C@@H](CCCCN)C(=O)N[C@@H](CCCCN)C(=O)N[C@@H](CC(C)C)C(=O)N[C@@H](CCC(=O)O)C(=O)N[C@@H](CCC(=O)O)C(=O)N[C@H](C(=O)N[C@@H](Cc1ccc(O)cc1)C(=O)N[C@H](C(=O)N[C@@H](CC(=O)O)C(=O)N[C@@H](CC(C)C)C(=O)N[C@@H](CCCCN)C(=O)N[C@@H](CCC(=O)O)C(=O)N[C@@H](CC(C)C)C(=O)O)[C@@H](C)CC)[C@@H](C)O  IC50 (SARS-CoV-2 Alpha pseudovirus; pseudovirus infection, inhibitor, luciferase; Caco-2; 24 h, dual mutations): 617 nM
COc1ccc(S(=O)(=O)Nc2cccc(C(=O)NC3CCN(c4ncnc5[nH]cnc45)CC3)c2)cc1  relative infection (SARS-CoV-2; Wuhan-Hu-1; 22.22 µM; reference: untreated infected cells): 32.4%
CCOP(=O)(OCC)ON1C(=O)c2cccc3cccc(c23)C1=O  IC50 (carboxylesterase (rat); enzyme activity, inhibitor; rat, postnatal day 12, rat liver homogenate; with: p-nitrophenyl valerate): 5.3 nM
